Measured values pooled from the literature.
Protocols differ between the studies behind these lines.
Target: Serine/threonine-protein kinase PLK3 (PLK3, Homo sapiens, UniProt Q9H4B4)

Structure (SMILES) | assay | setting | how to read | quantity | value
Nc1ncc(-c2cc(-c3cnn(CC(F)(F)F)c3)ncc2F)nc1C(=O)NC1CNCC(F)C1 (stereo not shown) | enzyme activity | 1 µM | baseline: DMSO control | remaining activity | 105%
C=CC(=O)N1Cc2nc(-c3cc(-c4cc(Cl)cnc4Cl)c(F)cc3F)n(-c3ccncn3)c2C1 | cell-free assay, inhibitor | 1 µM | – | inhibition | 11.1%
CC(C)=CC1OC(C)(C)C2C=C3C(=O)C(Cl)=CC(O)C3C3C(O)C4OC4C(=O)C132 (stereo not shown) | cell-free assay, competition with immobilised ligand | 10 µM | – | remaining binding | 67%
COc1cc(Nc2nccc(-c3cnn4nc(OC)ccc34)n2)cc(C(F)(F)F)c1 | binding, competition with immobilised ligand | 1 µM | – | remaining binding | 92%
O=C=[N][Ru-4]123([n]4c5ccc(O)cc5c5c6c(c7cc(F)c[n+]1c7c54)C(=O)NC6=O)[S+]1CC[S+]2CC[S+]3CC1 (stereo not shown) | enzyme activity | 100 nM, human enzyme, together with: 10 µM ATP | baseline: untreated | remaining activity | 113%
COc1cc(-n2cc3cc(F)cc(C(N)=O)c3n2)cc(Cl)c1C1CC(O)(CCO)Cc2ccccc21 (stereo not shown) | enzyme activity, inhibitor | 10 µM | – | inhibition | 0.91%
CN1CC[C@@H](COc2cnc(C#N)cc2-c2ccn3nc(NC(=O)C4CC4)cc3c2)C1 | enzyme activity, inhibitor | 1 µM | – | inhibition | 7%
NC(=O)C[C@H]1CCc2sc3ncnc(O[C@H]4CC[C@H](N5CCOCC5)CC4)c3c21 | enzyme activity, inhibitor | 10 µM | – | inhibition | 2%
Cc1cccc(O[C@H]2CCC[C@@H](C(C)CNCc3ccncc3)C2)c1 (relative stereo) | enzyme activity, inhibitor | 10 µM | – | inhibition | -24%
C=CC(=O)Nc1cccc(-c2cnc3[nH]cc(C(=O)NC(C)(C)C)c3n2)c1 | enzyme activity, inhibitor | 0.1 µM | – | inhibition | 14%
O=C(Cc1ccc(OCc2ccccc2)cc1)NC1(C(=O)O)CCN(C(=O)c2ccc(-c3cccc(Cl)c3)cc2)CC1 | enzyme activity, inhibitor | 10 µM | – | activity vs control | 99%
CNC(=O)C[C@H](Cc1ccc(C#N)cc1)NC(=O)c1cc(-c2ccc(CN[C@H](C)c3ccc(C)cc3)o2)ccc1Cl | enzyme activity, inhibitor | 1 µM | – | activity vs control | 104%
C=C1CCCCCCCCCC(CO)C1=O (stereo not shown) | cell-free assay, competition with immobilised ligand | 10 µM | – | remaining binding | 92%

Some of these lines once more:
Structure (SMILES) | assay | setting | how to read | quantity | value
O=C=[N][Ru-4]123([n]4c5ccc(O)cc5c5c6c(c7cc(F)c[n+]1c7c54)C(=O)NC6=O)[S+]1CC[S+]2CC[S+]3CC1 (stereo not shown) | enzyme activity | 100 nM, human enzyme, together with: 10 µM ATP | baseline: untreated | remaining activity | 113%
